{"data": "Measurements collected from several papers", "note": "Lines come from different studies, so protocols differ. ± marks the error that the study gave."}
{"SMILES": "N=C(c1ccc([N+](=O)[O-])o1)N1CCC(NC(=O)c2cc(-c3ccc(F)cc3F)on2)(c2nc3ccccc3[nH]2)CC1", "target or system": "STING pathway", "assay": "inhibitor, RT-qPCR", "test system": "mouse iBMDM", "setting": "concentration not given, 2 h, added: diABZI 500 nM", "quantity": "IFNβ mRNA level", "result": "inhibited"}
{"SMILES": "C=CC(=O)Nc1cccc(Cn2ncc3cnc(Nc4cnn(CCOC)c4)nc32)c1", "target or system": "CLK4 human", "assay": "binding, KINOMEscan", "setting": "100 nM", "how to read": "lower = stronger binding", "quantity": "percent of control", "result": "100%"}
{"SMILES": "Cc1cc(NC2CCN(C)CC2)ccc1-c1cc2c(N3CCC[C@H](C(=O)N[C@@H](C)c4ccccc4)C3)ncnc2[nH]1", "target or system": "NCI-H2228", "assay": "cell growth or viability, MTT", "setting": "5 µg/mL, 72 h", "quantity": "inhibition", "result": "93.3%"}
{"SMILES": "CC(C)c1ccc(N(C)c2ccc3c(c2)OCC[C@H]3CNc2cnccc2C(=O)O)cc1", "target or system": "NCI-H2081", "assay": "cell viability, CellTiter-Glo", "setting": "7 days", "quantity": "IC50", "result": "0.00257 µM"}
{"SMILES": "Cc1cc(NC2CCN(C)CC2)ccc1-c1cc2c(N3CCC[C@H](C(=O)Nc4ccc(C#N)cc4)C3)ncnc2[nH]1", "target or system": "NCI-H2228", "assay": "cell growth or viability, MTT", "setting": "1 µg/mL, 72 h", "quantity": "inhibition", "result": "81.5%"}
{"SMILES": "C=C(NC(=O)c1csc(-c2nc3c(cc2O)-c2nc(cs2)C(=O)NC(C(C)O)C(=O)NC(=C(C)OC)c2nc(cs2)C(=O)NC2c4nc(cs4)C(=O)NC(COC(=O)c4c5c6c(cccc6n4O)COC(=O)C(OC4CC(C)(O)C(N(C)C)C(C)O4)C2OC5)c2nc-3cs2)n1)C(N)=O (centres unmarked)", "target or system": "Streptococcus pneumoniae", "test system": "-4, immunocompromised mice, lung", "setting": "4 mg/kg/day once daily, 24 h post-dose", "quantity": "lung bacterial load", "result": "5.49 log10 CFU/lung"}
{"SMILES": "CN1CCCNC(=O)c2cccc(c2)C(=O)NCCCN(C)CCCNc2cccc3c2C(=O)c2cccc(c2C3=O)NCCC1", "target or system": "SAS", "assay": "RNA-Seq, item: TADA3 mRNA", "setting": "1 µM, 6 h", "how to read": "reference: untreated cells", "quantity": "log2 fold change", "result": 0.523}
{"SMILES": "COC1CN([C@H]2CC[C@H]([C@@]3(C)Oc4c(Cl)cc(C(=O)NCc5c(SC)cc(C)[nH]c5=O)c(C)c4O3)CC2)C1", "assay": "RNA-seq, item: RHBDF1 mouse homolog", "test system": "mouse, HT-1376 xenograft, whole blood", "setting": "dose not given", "how to read": "reference: vehicle", "quantity": "log2 fold change", "result": 4.64}
{"SMILES": "Cc1c(C)c2cccnc2c2ncccc12.O=[N+]([O-])[O-].O=c1c(C=NN=C([S-])Nc2ccccc2)coc2ccccc12.[Cu+2]", "target or system": "supercoiled pUC19 DNA", "assay": "oxidative DNA cleavage", "setting": "concentration not given, sodium azide 50 µM, added: ascorbic acid", "quantity": "supercoiled DNA remaining", "result": "0%"}
{"SMILES": "COc1cc(O)ccc1CCC(c1ccc(O)cc1)c1cc2c(c(C)c1O)OC(c1ccc(O)cc1)CC2 (mixture of isomers)", "test system": "human blood", "setting": "10 µM, added: A23187", "quantity": "PGD2 level", "result": "4 ± 2 pg/mL"}
{"SMILES": "CCN(CC)CC(=O)Nc1cccc(-n2cc(-c3ccc4ccc(-c5cn(-c6cccc(NC(=O)CN(CC)CC)c6)nn5)cc4c3)nn2)c1", "target or system": "RCC4", "assay": "PCR angiogenesis array, item: ERBB2", "setting": "5 x IC50, 2 h, normoxia", "how to read": "reference: untreated", "quantity": "fold regulation", "result": 1.12}
{"SMILES": "CC(=O)[O-].O.[Cu+2].[O-]c1ccc(Br)cc1C=NCCN1CCOCC1", "assay": "superoxide scavenging", "setting": "200 µM", "quantity": "inhibition", "result": "61.7%"}
{"SMILES": "Cc1cc(N)ccc1-c1cc2c(N3CCC[C@H](C(=O)NCc4ccc(OC(F)(F)F)cc4)C3)ncnc2[nH]1", "target or system": "NCI-H2228", "assay": "cell growth or viability, MTT", "setting": "0.008 µg/mL, 72 h", "quantity": "inhibition", "result": "42.4%"}
{"SMILES": "COc1ccc(Nc2n[nH]c3nc(-c4ccccc4)nc(N)c23)c(OC)c1", "target or system": "coxsackievirus B3", "assay": "viral cytopathic effect", "test system": "HeLa", "quantity": "IC50", "result": "66.5 µM"}
{"SMILES": "Cc1cc(NC2CCN(C)CC2)ccc1-c1cc2c(N3CCC[C@H](C(=O)NCc4ccc(Cl)nc4)C3)ncnc2[nH]1", "target or system": "NCI-H2228", "assay": "cell growth or viability, MTT", "setting": "5 µg/mL, 72 h", "quantity": "inhibition", "result": "85.6%"}
{"SMILES": "CNS(=O)(=O)Nc1nccc(Cc2c(C)c3ccc(Oc4ncccc4F)cc3oc2=O)c1F", "target or system": "CAPAN-1", "assay": "cell viability", "setting": "7 days", "quantity": "IC50", "result": "0.36 µM"}
{"SMILES": "CN1CCC[C@]1(C)/C=C/S(=O)(=O)NC(=O)Nc1c2c(cc3c1CCC3)CCC2", "test system": "human, whole blood ex vivo", "setting": "100 mg single dose, 3 h, single ascending dose, added: LPS and ATP", "quantity": "IL-18 inhibition", "result": "130%"}
{"SMILES": "Cc1cc(NC2CCN(C)CC2)ccc1-c1cc2c(N3CCC[C@H](C(=O)NCc4ccc(OC(F)(F)F)cc4)C3)ncnc2[nH]1", "target or system": "NCI-H2228", "assay": "cell growth or viability, MTT", "setting": "0.2 µg/mL, 72 h", "quantity": "inhibition", "result": "75%"}
{"SMILES": "COc1ccc(C(=O)CCc2cc(C(CCc3ccc(O)cc3OC)c3ccc(O)cc3)c(O)cc2OC)cc1 (racemic)", "test system": "human blood", "setting": "30 µM, added: A23187", "quantity": "4-HDHA level", "result": "38 ± 7 pg/mL"}
{"SMILES": "Nc1ncc(-c2cc(-c3cnn(CC(F)(F)F)c3)ncc2F)nc1C(=O)NC1CNCC(F)C1 (centres unmarked)", "target or system": "CAMK2B", "assay": "KINOMEscan", "setting": "1 µM", "how to read": "reference: DMSO control", "quantity": "remaining binding", "result": "96%"}
{"SMILES": "Cc1ncsc1-c1ccc(C(C)NC(=O)C2CC(O)CN2C(=O)C(NC(=O)CCCCCCCCCCN2CCCC(Nc3ncc(Cl)c(Nc4ccccc4S(=O)(=O)C(C)C)n3)C2)C(C)(C)C)cc1 (centres unmarked)", "target or system": "22Rv1", "assay": "RNA-seq, item: VANGL1 mRNA", "setting": "concentration not given", "how to read": "reference: DMSO", "quantity": "log2 fold change", "result": -1.54}
{"SMILES": "C=CC(=O)N1[C@@H](c2ccc3c(c2)OCO3)c2[nH]c3ccccc3c2C[C@H]1C(=O)N1CCN(C)CC1", "target or system": "CCNE1 WT-3xFLAG:CDK2 complex", "assay": "co-IP TMT proteomics, item: CKS1B", "test system": "HEK-293T", "setting": "20 µM, 6 h", "how to read": "reference: DMSO", "quantity": "log2 fold change", "result": 0.19}
{"SMILES": "c1ccc(-c2n[nH]cc2-c2ccnc3ccccc23)nc1", "target or system": "orf19.3456 Candida albicans", "assay": "kinase binding, MIB/MS competition", "test system": "Candida albicans lysate", "setting": "10 µM", "how to read": "reference: DMSO", "quantity": "log2 fold change", "result": -0.46}
{"note": "A few entries again:"}
{"SMILES": "COc1ccc(C(=O)CCc2cc(C(CCc3ccc(O)cc3OC)c3ccc(O)cc3)c(O)cc2OC)cc1 (racemic)", "test system": "human blood", "setting": "30 µM, added: A23187", "quantity": "4-HDHA level", "result": "38 ± 7 pg/mL"}
{"SMILES": "Nc1ncc(-c2cc(-c3cnn(CC(F)(F)F)c3)ncc2F)nc1C(=O)NC1CNCC(F)C1 (centres unmarked)", "target or system": "CAMK2B", "assay": "KINOMEscan", "setting": "1 µM", "how to read": "reference: DMSO control", "quantity": "remaining binding", "result": "96%"}
{"SMILES": "Cc1ncsc1-c1ccc(C(C)NC(=O)C2CC(O)CN2C(=O)C(NC(=O)CCCCCCCCCCN2CCCC(Nc3ncc(Cl)c(Nc4ccccc4S(=O)(=O)C(C)C)n3)C2)C(C)(C)C)cc1 (centres unmarked)", "target or system": "22Rv1", "assay": "RNA-seq, item: VANGL1 mRNA", "setting": "concentration not given", "how to read": "reference: DMSO", "quantity": "log2 fold change", "result": -1.54}
